Assay results pooled from the literature.
Each line is one published result; not all experiments were run side by side. ± gives the spread as reported.
Chain of UniProt P49761 (whole entry, looked up): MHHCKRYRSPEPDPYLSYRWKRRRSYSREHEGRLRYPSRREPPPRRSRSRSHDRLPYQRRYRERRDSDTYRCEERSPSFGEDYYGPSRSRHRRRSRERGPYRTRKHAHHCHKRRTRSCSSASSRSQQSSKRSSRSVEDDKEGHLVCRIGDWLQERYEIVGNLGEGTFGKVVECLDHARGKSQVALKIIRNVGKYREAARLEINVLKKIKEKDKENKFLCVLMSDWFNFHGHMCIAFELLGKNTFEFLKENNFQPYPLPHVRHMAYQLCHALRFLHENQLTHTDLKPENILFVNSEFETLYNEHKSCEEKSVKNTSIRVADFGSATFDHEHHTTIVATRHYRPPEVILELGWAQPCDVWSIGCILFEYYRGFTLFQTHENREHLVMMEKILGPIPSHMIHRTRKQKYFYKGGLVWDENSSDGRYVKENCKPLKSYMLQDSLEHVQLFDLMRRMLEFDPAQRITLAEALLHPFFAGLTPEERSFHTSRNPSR
Chain of UniProt P51813 (whole entry, looked up): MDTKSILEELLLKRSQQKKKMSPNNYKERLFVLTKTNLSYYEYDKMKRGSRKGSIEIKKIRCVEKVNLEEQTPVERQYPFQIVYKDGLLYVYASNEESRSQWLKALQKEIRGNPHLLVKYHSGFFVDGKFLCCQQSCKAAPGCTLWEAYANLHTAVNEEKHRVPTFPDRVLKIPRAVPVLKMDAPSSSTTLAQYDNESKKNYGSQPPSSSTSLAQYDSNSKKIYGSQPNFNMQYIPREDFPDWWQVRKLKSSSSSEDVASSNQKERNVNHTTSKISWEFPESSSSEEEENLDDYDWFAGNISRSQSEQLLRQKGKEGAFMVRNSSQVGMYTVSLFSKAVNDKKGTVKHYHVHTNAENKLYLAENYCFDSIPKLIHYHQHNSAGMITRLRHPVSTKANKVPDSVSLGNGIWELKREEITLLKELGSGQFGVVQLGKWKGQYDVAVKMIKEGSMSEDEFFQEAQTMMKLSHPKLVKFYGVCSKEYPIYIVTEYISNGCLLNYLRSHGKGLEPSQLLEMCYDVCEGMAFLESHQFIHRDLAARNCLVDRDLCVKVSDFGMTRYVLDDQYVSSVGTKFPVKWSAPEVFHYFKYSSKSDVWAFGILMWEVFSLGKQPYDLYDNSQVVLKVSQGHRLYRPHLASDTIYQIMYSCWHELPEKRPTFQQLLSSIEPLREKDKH
Chain of UniProt Q08881 (whole entry, looked up): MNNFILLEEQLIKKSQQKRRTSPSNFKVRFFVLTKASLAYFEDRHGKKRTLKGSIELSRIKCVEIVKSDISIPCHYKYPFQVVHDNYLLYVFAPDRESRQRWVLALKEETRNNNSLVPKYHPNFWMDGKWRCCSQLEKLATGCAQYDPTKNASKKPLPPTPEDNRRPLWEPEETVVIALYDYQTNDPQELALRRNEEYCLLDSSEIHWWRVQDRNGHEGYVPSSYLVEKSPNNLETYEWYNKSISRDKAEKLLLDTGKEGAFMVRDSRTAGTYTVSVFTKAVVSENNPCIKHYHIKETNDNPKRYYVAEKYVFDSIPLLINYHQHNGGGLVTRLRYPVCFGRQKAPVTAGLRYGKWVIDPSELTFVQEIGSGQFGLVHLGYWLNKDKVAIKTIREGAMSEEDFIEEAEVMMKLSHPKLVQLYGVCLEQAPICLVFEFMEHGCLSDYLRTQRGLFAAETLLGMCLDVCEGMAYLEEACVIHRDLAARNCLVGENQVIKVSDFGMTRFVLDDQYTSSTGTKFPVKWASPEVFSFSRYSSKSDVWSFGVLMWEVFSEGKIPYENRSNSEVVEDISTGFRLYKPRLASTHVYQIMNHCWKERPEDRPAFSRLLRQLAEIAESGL
Chain of UniProt Q00535 (whole entry, looked up): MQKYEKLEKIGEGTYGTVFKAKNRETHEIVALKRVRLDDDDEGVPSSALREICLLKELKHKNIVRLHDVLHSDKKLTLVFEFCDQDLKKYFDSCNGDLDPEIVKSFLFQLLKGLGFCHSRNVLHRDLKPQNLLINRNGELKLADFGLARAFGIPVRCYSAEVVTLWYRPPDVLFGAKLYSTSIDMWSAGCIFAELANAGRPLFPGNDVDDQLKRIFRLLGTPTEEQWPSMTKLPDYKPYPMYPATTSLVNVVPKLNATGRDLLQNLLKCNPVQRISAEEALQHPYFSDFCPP

| Structure (SMILES) | target or system | test | system | conditions | scale | endpoint | value |
| --- | --- | --- | --- | --- | --- | --- | --- |
| CC(C)C[C@H](NC(=O)[C@H](Cc1ccc(O)cc1)NC(=O)[C@H](Cc1c[nH]cn1)NC(=O)[C@@H](NC(=O)[C@H](CC(C)C)NC(=O)[C@H](C)NC(=O)[C@H](C)NC(=O)[C@H](CCCCN)NC(=O)CNC(=O)[C@@H](NC(=O)[C@H](Cc1c[nH]cn1)NC(=O)[C@H](CCCCN)NC(=O)CNC(=O)[C@@H](NC(=O)[C@H](Cc1c[nH]cn1)NC(=O)[C@H](C)NC(=O)[C@H](C)NC(=O)[C@H](CCCCN)NC(=O)[C@H](CCCCN)NC(=O)[C@H](Cc1ccccc1)NC(=O)[C@H](Cc1ccccc1)NC(=O)[C@H](CO)NC(=O)CNC(=O)[C@H](Cc1c[nH]c2ccccc12)NC(=O)CN)C(C)C)C(C)C)[C@@H](C)O)C(N)=O |  |  | zebrafish embryos 28 hpf, E3 medium | 24 h |  | chronic toxic concentration | 5 µM |
| [18F]c1ncccc1-c1ccc2c(n1)[nH]c1ccncc12 |  | PET imaging | Sprague-Dawley rat, both sexes | intravenous bolus |  | brain initial uptake | 2.5 to 2.8 SUV |
| N#[11C]c1ccc(-c2csc(NN=C3CCCC3)n2)cc1 |  |  | C57BL/6 mice, male, heart | intravenous, 3 MBq, 5 min |  | radioactivity uptake | 4.7 ± 0.38 %ID/g |
| O=C1NC2(CC2)COc2ncc(F)cc2[C@H]2COCCN2c2ccn3ncc1c3n2 |  |  | Sprague-Dawley rat, male, serum | oral, 20 mg/kg/day, end of treatment, 4-week subacute toxicity |  | serum potassium | 5.08 ± 1.04 mmol/L |
| O=C1NC(=O)c2c1c1cc(F)c[n+]3c1c1c2c2cc(O)ccc2[n]1[Ru-4]312([N]=C=S)[S+]3CC[S+]1CC[S+]2CC3 (stereo not drawn) | Dual specificity protein kinase CLK3 (CLK3, Homo sapiens, UniProt P49761) | enzyme activity |  | 100 nM, human enzyme, with: 10 µM ATP | reference: untreated | remaining activity | 90% |
| COC(=O)[C@H]1[C@@H](c2ccc(Cl)c(Cl)c2)C[C@@H]2CC[C@H]1N2Cc1ccc2cc3ccccc3cc2c1 |  | fluorometric titration |  | 1 µM, 10% DMSO |  | pKa | 5.7 |
| CSCC[C@H](NC(=O)CNC(=O)[C@H](CCCCN)NC(=O)[C@H](CC(C)C)NC(=O)[C@@H]1CCCN1C(=O)[C@H](CO)NC(=O)[C@H](Cc1c[nH]cn1)NC(=O)[C@H](Cc1c[nH]c2ccccc12)NC(=O)[C@H](CCCNC(=N)N)NC(=O)[C@H](CC(C)C)NC(=O)[C@H](CCCNC(=N)N)NC(=O)[C@H](Cc1c[nH]c2ccccc12)NC(=O)[C@H](CS)NC(=O)CCCCCNC(=O)CN1CCN(CC(=O)O)CCN(CC(=O)O)CCN(CC(=O)O)CC1)C(=O)O [copper-64 labelled] |  | PET imaging | C57BL/6J mice bearing B16-F10 tumours, liver | intravenous, 57.5 min |  | tissue uptake | 9.41 ± 1.4 %ID/g |
| Cc1nc2cccc(OCC(C)(C)C(=O)NC(C)C)c2c(N)c1C(=O)[O-].[Na+] | Salmonella typhimurium | Ames plate incorporation | TA98 | 0.13 mg/plate, with: with rat liver S9 |  | revertant colonies | 41 ± 5 colonies/plate |
| CN(C)[C@H]1C[C@@]23CC[C@@]4(O2)C(=CC[C@]2(C)[C@@H](c5ccc6ccncc6c5)CC[C@H]24)C=C3[C@@H](O)[C@@H]1O | Cyclin-dependent kinase 5 (CDK5, Homo sapiens, UniProt Q00535) | ATP probe labelling, inhibitor, KiNativ profiling |  | 0.1 µM |  | inhibition | 4.3% |
| COc1ccccc1-c1n[nH]c2nc(NC3CCN(C(=O)Cc4ccc(F)cc4F)CC3)ncc12 |  | bead binding, competition bead pull-down, item: LINJ.05.0350 | Leishmania donovani extract | 10 µM | reference: vehicle | relative abundance | 1.04 |
| CC[C@H](C)[C@H](NC(=O)[C@H](CCCCN)NC(=O)CNC(=O)[C@H](CC(C)C)NC(=O)[C@H](Cc1ccccc1)NC(=O)[C@H](CCCCN)NC(=O)[C@H](CO)NC(=O)[C@H](Cc1ccccc1)NC(=O)[C@H](Cc1c[nH]c2ccccc12)NC(=O)[C@H](CCC(N)=O)NC(=O)[C@@H](NC(=O)[C@H](Cc1ccccc1)NC(=O)CCCCCNC(=O)CN1CCN(CC(=O)O)CCN(CC(=O)O)CCN(CC(=O)O)CC1)C(C)C)C(=O)N[C@@H](CCC(=O)O)C(=O)N1CCC[C@H]1C(=O)N[C@@H](CC(=O)O)C(=O)N[C@H](C(=O)N[C@@H](CO)C(=O)N[C@@H](CCC(N)=O)C(=O)N[C@H](C(=O)N[C@@H](CCC(N)=O)C(=O)N[C@@H](CC(=O)O)C(=O)N1CCC[C@H]1C(=O)N[C@@H](CC(N)=O)C(=O)N[C@@H](CC(=O)O)C(=O)N[C@@H](CCC(N)=O)C(=O)N[C@@H](Cc1ccc(O)cc1)C(=O)N[C@@H](CCC(=O)O)C(=O)N1CCC[C@H]1C(=O)N[C@@H](Cc1ccccc1)C(=O)O)C(C)C)C(C)C [copper-64 labelled] |  | dynamic PET | mouse, CT26 tumour, untreated, tumour | intravenous, 100 µCi/mouse, 3500 s |  | SUVmean | 1.33 SUV |
| CCCCCCCCCCCCCC(=O)N[C@@H](CCCNC(=N)N)C(=O)N[C@@H](Cc1c[nH]c2ccccc12)C(=O)N[C@@H](CCCCN)C(=O)N[C@H](C(=O)N[C@@H](Cc1ccccc1)C(=O)N[C@@H](CCCCN)C(=O)N[C@@H](CCCCN)C(=O)N[C@H](C(=O)N[C@@H](CCC(=O)O)C(=O)N[C@@H](CCCCN)C(=O)N[C@H](C(=O)NCC(=O)N[C@@H](CCC(N)=O)C(=O)N[C@@H](CC(N)=O)C(=O)N[C@H](C(=O)N[C@@H](CCCNC(=N)N)C(=O)N[C@@H](CC(=O)O)C(=O)NCC(=O)N[C@H](C(=O)N[C@H](C(=O)N[C@@H](CCCCN)C(=O)N[C@@H](C)C(=O)NCC(=O)N1CCC[C@H]1C(=O)N[C@@H](C)C(=O)N[C@H](C(=O)N[C@@H](C)C(=O)N[C@H](C(=O)N[C@H](C(=O)NCC(=O)N[C@@H](CCC(N)=O)C(=O)N[C@@H](C)C(=O)N[C@@H](C)C(=O)N[C@H](C(=O)N[C@H](C(N)=O)[C@@H](C)CC)[C@@H](C)O)C(C)C)C(C)C)C(C)C)C(C)C)[C@@H](C)CC)[C@@H](C)CC)C(C)C)[C@@H](C)CC)[C@@H](C)CC |  | CD spectroscopy | 50% TFE in water | room temperature |  | helical content | 53.5% |
| CCN(CC)CCOc1ccc(-c2nnn(Cc3ccc(OC)cc3)c2N)cc1 |  |  | human plasma | 120 min |  | remaining compound | 104% |
| CC[C@H](C)[C@H](NC(=O)[C@H](C)NC(=O)[C@H](CCCCN)NC(=O)[C@H](CC(C)C)NC(=O)[C@@H](N)Cc1ccccc1)C(=O)N[C@@H](CCCCN)C(=O)N[C@@H](CCCCN)C(=O)N[C@@H](Cc1ccccc1)C(=O)NCC(=O)N[C@@H](CCCCN)C(=O)N[C@@H](CCC(=O)O)C(=O)N[C@@H](Cc1ccccc1)C(=O)N[C@@H](CCCCN)C(=O)N[C@@H](CCCCN)C(=O)N[C@H](C(=O)NCC(=O)N[C@@H](C)C(=O)N[C@@H](CCCCN)C(=O)N[C@@H](CC(C)C)C(=O)N[C@@H](CCCCN)C(=O)O)[C@@H](C)CC |  |  | human red blood cells | 32 mg/L, 1 h |  | hemolysis | 1.06% |
| CC(C)[C@H]1NC(=O)C[C@H]2/C=C/CCSSC[C@@H](NC1=O)C(=O)N[C@H](Cc1cccc3ccccc13)C(=O)NCC(=O)O2 | Tyrosine-protein kinase ITK/TSK (ITK, Homo sapiens, UniProt Q08881) | enzyme activity, inhibitor |  | 10 µM |  | inhibition | 7.5% |
| CCCCCCCCCCCCCCCC(=O)N[C@@H](CCC(=O)NCCOCCOCCC(=O)NCCOCCOCCC(=O)NCCCC[C@H](NC(=O)[C@H](CC(=O)O)NC(=O)[C@H](CC(C)C)NC(=O)[C@H](Cc1ccc(O)cc1)NC(=O)[C@H](CCCCN)NC(=O)[C@H](CO)NC(=O)[C@H](Cc1ccc(O)cc1)NC(=O)[C@H](CC(=O)O)NC(=O)[C@H](CO)NC(=O)[C@@H](NC(=O)[C@H](Cc1ccccc1)NC(=O)[C@@H](NC(=O)CNC(=O)[C@H](CCC(N)=O)NC(=O)[C@@H](CO)NC(=O)[C@@H](N)Cc1c[nH]cn1)[C@@H](C)O)[C@@H](C)O)C(=O)N[C@@H](CCCNC(=N)N)C(=O)N[C@@H](CCCNC(=N)N)C(=O)N[C@@H](C)C(=O)N[C@@H](CCC(N)=O)C(=O)N[C@@H](CC(=O)O)C(=O)N[C@@H](Cc1ccccc1)C(=O)N[C@H](C(=O)N[C@@H](CCC(N)=O)C(=O)N[C@@H](Cc1c[nH]c2ccccc12)C(=O)N[C@@H](CC(C)C)C(=O)N[C@@H](CC(C)C)C(=O)N[C@@H](CC(N)=O)C(=O)N[C@H](C(=O)NCC(=O)NCC(=O)N1CCC[C@H]1C(=O)N[C@@H](CO)C(=O)N[C@@H](CO)C(=O)NCC(=O)N[C@@H](C)C(=O)N1CCC[C@H]1C(=O)N1CCC[C@H]1C(=O)N1CCC[C@H]1C(=O)N[C@@H](CO)C(N)=O)[C@@H](C)O)C(C)C)C(=O)O |  |  | rhesus monkey, female, plasma | subcutaneous, 300 µg/kg, day 1, toxicokinetics, mean |  | Cmax | 562 ng/mL |
| CS(C)(=O)=Nc1ccc(-c2ccc(-c3nc4cc(O[C@@H]5CO[C@H]6[C@@H]5OC[C@H]6O)[nH]c4cc3F)cc2)cc1 | Cytoplasmic tyrosine-protein kinase BMX (BMX, Homo sapiens, UniProt P51813) | enzyme activity, inhibitor |  | 10 µM |  | inhibition | -12% |
| CCCCCCCCCCCCCC(=O)N[C@H](CCN)C(=O)N[C@@H]1C(=O)N[C@@H](CCN)C(=O)N[C@@H](CC(C)C)C(=O)N[C@@H](CCN)C(=O)N[C@H](Cc2ccccc2)C(=O)N[C@@H](CC(C)C)C(=O)N[C@@H](CCN)C(=O)N[C@H](CCN)C(=O)N[C@@H](C(C)C)C(=O)N[C@@H](CC(=O)O)C(=O)O[C@@H]1C |  |  | rat, plasma | intravenous, 5 mg/kg |  | AUC(0-t) | 56300 ng·h/mL |
